Published values gathered from unrelated publications.
Numbered parts are unrelated; each lists some results of a single study. Values joined by “and” are separate records of one study, mostly repeats; a detail may differ.
UniProt Q59H18, sequence (whole entry, looked up): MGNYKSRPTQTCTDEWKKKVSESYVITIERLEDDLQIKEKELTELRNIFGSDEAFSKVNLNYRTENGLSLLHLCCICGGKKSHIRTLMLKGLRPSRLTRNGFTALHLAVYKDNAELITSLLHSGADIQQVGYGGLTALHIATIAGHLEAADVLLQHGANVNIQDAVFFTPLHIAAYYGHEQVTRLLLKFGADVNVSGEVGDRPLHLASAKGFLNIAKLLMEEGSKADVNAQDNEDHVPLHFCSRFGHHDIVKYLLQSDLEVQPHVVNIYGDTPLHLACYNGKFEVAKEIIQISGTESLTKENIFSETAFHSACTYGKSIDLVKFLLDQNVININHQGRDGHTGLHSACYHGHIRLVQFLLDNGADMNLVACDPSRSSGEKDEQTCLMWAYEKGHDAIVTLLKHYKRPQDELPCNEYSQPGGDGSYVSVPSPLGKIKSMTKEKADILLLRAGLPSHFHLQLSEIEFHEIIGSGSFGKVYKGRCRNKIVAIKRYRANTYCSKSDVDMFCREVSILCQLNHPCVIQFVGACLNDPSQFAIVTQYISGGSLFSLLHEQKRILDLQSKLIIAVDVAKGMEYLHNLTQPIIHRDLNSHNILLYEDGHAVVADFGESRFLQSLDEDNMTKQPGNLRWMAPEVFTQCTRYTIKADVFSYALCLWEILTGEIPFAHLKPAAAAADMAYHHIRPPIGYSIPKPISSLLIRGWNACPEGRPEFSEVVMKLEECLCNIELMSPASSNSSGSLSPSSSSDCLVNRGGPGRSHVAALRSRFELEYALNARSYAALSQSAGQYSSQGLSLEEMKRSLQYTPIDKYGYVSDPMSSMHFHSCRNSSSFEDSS
UniProt P53778, sequence (whole entry, looked up): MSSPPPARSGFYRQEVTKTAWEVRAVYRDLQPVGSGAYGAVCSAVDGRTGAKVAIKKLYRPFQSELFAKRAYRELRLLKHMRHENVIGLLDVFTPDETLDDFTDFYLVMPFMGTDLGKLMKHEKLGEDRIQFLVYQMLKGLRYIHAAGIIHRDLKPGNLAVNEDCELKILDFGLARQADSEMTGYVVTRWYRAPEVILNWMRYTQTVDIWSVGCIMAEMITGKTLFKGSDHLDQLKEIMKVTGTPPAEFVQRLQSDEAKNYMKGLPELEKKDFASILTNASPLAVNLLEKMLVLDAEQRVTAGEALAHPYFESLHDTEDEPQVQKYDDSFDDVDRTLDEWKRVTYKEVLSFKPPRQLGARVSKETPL
UniProt P41240, sequence (whole entry, looked up): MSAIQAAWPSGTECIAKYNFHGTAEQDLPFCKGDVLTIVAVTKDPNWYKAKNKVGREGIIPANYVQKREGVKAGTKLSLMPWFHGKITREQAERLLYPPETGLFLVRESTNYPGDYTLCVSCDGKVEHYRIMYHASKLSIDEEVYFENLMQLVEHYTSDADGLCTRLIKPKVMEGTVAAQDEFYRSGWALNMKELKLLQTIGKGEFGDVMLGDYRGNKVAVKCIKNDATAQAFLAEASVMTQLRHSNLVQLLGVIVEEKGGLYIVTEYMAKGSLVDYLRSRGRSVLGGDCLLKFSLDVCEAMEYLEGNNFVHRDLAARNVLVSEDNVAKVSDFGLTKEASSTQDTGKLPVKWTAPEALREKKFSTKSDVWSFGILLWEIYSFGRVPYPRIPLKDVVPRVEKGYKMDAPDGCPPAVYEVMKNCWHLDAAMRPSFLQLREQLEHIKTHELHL

Sample 1 — observed: enzyme activity; mode: inhibitor; concentration: 77 µM; reference: untreated
Target: DNA polymerase theta, ATPase domain (POLQ, Homo sapiens, UniProt O75417)
UniProt O75417, sequence (whole entry, unmodified, looked up): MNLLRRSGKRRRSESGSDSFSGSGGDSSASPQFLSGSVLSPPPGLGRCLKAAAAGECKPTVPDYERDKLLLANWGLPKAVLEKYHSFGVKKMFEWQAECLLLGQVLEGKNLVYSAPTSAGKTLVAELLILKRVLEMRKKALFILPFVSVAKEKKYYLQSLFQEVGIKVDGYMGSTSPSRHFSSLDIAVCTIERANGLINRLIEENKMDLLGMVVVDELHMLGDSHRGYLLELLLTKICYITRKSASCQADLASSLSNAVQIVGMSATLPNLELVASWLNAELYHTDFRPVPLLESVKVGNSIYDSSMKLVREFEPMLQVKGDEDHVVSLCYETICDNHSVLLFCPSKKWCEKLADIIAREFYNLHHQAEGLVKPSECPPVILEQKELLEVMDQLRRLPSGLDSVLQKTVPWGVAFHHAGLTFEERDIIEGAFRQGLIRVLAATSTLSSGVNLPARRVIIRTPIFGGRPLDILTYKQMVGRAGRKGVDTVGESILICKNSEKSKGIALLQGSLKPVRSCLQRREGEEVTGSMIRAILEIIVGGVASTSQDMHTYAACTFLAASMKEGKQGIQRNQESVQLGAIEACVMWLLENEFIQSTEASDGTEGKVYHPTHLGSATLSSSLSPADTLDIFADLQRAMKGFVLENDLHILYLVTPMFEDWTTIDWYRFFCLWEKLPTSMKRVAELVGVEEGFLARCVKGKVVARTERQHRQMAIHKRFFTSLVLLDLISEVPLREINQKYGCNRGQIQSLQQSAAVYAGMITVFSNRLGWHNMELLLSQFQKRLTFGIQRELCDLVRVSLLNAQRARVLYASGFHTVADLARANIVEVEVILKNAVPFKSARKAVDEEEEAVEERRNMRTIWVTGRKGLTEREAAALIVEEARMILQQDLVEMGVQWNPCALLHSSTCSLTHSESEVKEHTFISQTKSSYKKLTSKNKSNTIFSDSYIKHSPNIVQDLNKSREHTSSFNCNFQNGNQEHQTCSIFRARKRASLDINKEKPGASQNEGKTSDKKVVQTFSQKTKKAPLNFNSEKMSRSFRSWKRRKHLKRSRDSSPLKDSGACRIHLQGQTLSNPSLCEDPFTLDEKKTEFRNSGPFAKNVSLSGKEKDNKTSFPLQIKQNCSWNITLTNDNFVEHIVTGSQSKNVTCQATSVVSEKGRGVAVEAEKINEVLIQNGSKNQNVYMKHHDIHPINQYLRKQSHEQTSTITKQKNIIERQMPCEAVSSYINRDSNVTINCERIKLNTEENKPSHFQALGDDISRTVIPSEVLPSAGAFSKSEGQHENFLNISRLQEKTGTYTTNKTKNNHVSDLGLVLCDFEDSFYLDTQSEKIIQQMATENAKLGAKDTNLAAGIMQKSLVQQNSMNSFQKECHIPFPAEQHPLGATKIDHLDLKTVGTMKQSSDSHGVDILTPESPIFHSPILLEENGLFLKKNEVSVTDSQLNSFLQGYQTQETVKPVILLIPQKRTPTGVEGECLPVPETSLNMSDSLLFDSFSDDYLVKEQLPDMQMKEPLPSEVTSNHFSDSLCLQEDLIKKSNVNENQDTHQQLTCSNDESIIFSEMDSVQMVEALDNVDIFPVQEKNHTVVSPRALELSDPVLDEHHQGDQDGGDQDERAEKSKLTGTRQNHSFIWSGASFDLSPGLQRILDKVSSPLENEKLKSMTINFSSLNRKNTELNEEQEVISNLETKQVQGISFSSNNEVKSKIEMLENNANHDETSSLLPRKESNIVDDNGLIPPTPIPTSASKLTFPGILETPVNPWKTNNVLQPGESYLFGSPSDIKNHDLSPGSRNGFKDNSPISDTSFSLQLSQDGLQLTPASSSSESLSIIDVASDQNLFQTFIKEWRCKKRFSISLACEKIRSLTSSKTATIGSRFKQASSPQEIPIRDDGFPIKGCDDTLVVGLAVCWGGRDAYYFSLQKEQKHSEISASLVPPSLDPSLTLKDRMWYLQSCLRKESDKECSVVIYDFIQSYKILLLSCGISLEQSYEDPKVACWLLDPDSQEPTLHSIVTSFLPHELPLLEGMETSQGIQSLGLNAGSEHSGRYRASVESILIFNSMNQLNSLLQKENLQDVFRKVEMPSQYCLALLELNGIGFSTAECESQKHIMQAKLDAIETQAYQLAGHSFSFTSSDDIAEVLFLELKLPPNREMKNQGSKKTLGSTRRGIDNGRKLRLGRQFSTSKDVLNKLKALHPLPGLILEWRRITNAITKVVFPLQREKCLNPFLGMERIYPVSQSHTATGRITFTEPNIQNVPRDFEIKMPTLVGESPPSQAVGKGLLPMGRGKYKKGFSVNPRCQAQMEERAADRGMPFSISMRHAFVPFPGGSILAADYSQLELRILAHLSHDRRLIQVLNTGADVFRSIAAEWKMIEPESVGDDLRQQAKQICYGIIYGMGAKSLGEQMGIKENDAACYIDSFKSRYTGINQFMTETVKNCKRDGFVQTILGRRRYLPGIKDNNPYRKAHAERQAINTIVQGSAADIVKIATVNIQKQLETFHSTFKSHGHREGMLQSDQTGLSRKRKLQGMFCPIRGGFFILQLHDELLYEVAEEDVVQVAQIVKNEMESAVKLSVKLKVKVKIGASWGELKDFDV
| Structure (SMILES) | remaining activity |
| --- | --- |
| O=C(N/N=C/c1ccc(O)c(O)c1)c1cc2ccccc2cc1O | 95.7% |
| CN1C(=O)C(Cc2c[nH]c3ccccc23)NC1=S (stereo not shown) | 105% and 98.6% |
| O=C(CCCCCCNC(=O)c1cnc(N(c2ccccc2)c2ccccc2)nc1)NO | 101% |
| CCC[C@H](N[C@@H](C)C(=O)N1[C@H](C(=O)O)C[C@@H]2CCCC[C@@H]21)C(=O)OCC | 89.2% |
| CCc1nc(N)nc(N)c1-c1ccc(Cl)cc1 | 99.8% and 97.9% |
| Cc1ccc(C)c(OCCCC(C)(C)C(=O)O)c1 | 97.2% and 102% |
| CNC(=O)c1nn(C)c2c1C(C)(C)Cc1cnc(Nc3ccc(N4CCN(C)CC4)cc3)nc1-2 | 81.8% |
| COC(=O)[C@H](c1ccccc1Cl)N1CCc2sccc2C1 | 83.1% |
| CN1CCN(c2cccc(Nc3nc4c(-c5ccc(S(C)(=O)=O)cc5)cccn4n3)c2)CC1 | 101% |
| COc1c2ccoc2nc2c(OC)c(OCC(O)C(C)(C)O)ccc12 (stereo not shown) | 101% |
| Nc1cc(Cl)c(N=C2NCCN2)c(Cl)c1 | 91.5% |
| CC(C)[C@H](N)C(=O)OCCOCn1cnc2c(=O)nc(N)[nH]c21 | 100% |

Sample 2 — method: CellTiter-Glo; concentration: 1 µM; reference: DMSO
Cell line: normal-adjacent epithelium patient-derived organoids sample H
| Compound | viability |
| --- | --- |
| Cn1cc(-c2ccc3occ(-c4cccc(-c5ccncc5)c4)c3n2)cn1 | 109% |
| COCc1nc2cnc3cc(-c4c(C)noc4C)c(OC[C@H]4CCNC4)cc3c2n1[C@H](C)c1ccccc1 | 91.4% |
| Cc1ncc(-c2cc(Cl)ccc2F)cc1-n1c(=O)n(CC(N)=O)c2ccccc21 | 104% and 99.8% |
| COc1cc(Nc2nccc(-c3cnn4nc(OC)ccc34)n2)cc(C(F)(F)F)c1 | 57% |
| Cl.Cl.NC1(c2ccc(-c3nc4ccn5c(=O)[nH]nc5c4cc3-c3ccccc3)cc2)CCC1 | 80.1% and 112% |
| CCC(=N\O)/C(C)=C/c1ccc(F)cc1 | 114% and 90.9% |
| Cc1cc2c(-c3ccco3)cnc(N[C@@H]3CCN(C)C[C@H]3C(=O)NC3CCCCC3)c2[nH]c1=O | 74.9% |
| COc1ccc2c(O[C@@H]3C[C@H]4C(=O)N[C@]5(C(=O)O)CC5/C=C\CCCCC[C@H](NC(=O)OC5CCCC5)C(=O)N4C3)cc(-c3csc(NC(=O)C(C)C)n3)nc2c1C (stereo partly shown) | 93% and 105% |
| CCNC(=O)c1cc2c(N3CCOC[C@H]3C)ccnc2n1C | 118% and 109% |
| COc1cccc(NC(=O)c2nc3scc(CN(C)Cc4ccccc4)c3c(=O)[nH]2)c1 | 135% and 95.7% |
| CCC(=NO)C(C)=Cc1ccc(F)c(C)c1 | 113% and 106% |
| CCCCNc1ncc(-c2ccc(CN3CCOCC3)cn2)c(NC2CCC(O)CC2)n1 (stereo not shown) | 105% and 125% |
| COc1cc(Nc2ncc3c(n2)-c2ccc(Cl)cc2C(c2c(F)cccc2OC)=NC3)ccc1C(=O)O | 17.7% |
| O=C(Nc1cccnn1)N1CC(CC=Cc2cncc(Oc3ccc(C(F)(F)F)cn3)n2)C1 | 110% and 96.2% |
| CC(=O)NCC(=O)N1[C@@H]2CC[C@H]1c1ccc(Nc3ncc(C(F)(F)F)c(NC4CCC4)n3)cc12 | 18.2% and 11.4% |

Sample 3 — concentration: 1 µM
SMILES: CN1CCN(C(=O)c2ccc(NC(=O)Nc3ccc(N(C)c4ccnc(Nc5ccc(CS(C)(=O)=O)cc5)n4)cc3)cc2)CC1
| target | test | setting | scale | remaining binding |
| --- | --- | --- | --- | --- |
| CSNK1G2 (Homo sapiens, UniProt P78368) | competitive binding panel |  | reference: vehicle | 100% |
| MAP2K5 (Homo sapiens, UniProt Q13163) | competitive binding panel, item: MEK5 |  | reference: vehicle | 0.1% |
| ABL1 (Homo sapiens, UniProt P00519) | competitive binding, scanMAX | nonphosphorylated, 1000 nM |  | 9% |
| STK39 (Homo sapiens, UniProt Q9UEW8) | competitive binding panel |  | reference: vehicle | 79% |
| DAPK3 (Homo sapiens, UniProt O43293) | competitive binding panel |  | reference: vehicle | 100% |
| IKBKB (Homo sapiens, UniProt O14920) | competitive binding | IKK-beta |  | 70% |
| RPS6KA5 (Homo sapiens, UniProt O75582) | competitive binding scan | C-terminal kinase domain 2 |  | 87% |
| MAPK12 (Homo sapiens, UniProt P53778) | competitive binding | p38-gamma |  | 100% |
| TEC (Homo sapiens, UniProt P42680) | competitive binding panel |  | reference: vehicle | 100% |
| TNNI3K (Homo sapiens, UniProt Q59H18) | competitive binding panel |  | reference: vehicle | 92% |
| CASK (Homo sapiens, UniProt O14936) | competitive binding panel |  | reference: vehicle | 85% |
| EPHA5 (Homo sapiens, UniProt P54756) | competitive binding panel |  | reference: vehicle | 99% |
| STK38L (Homo sapiens, UniProt Q9Y2H1) | competitive binding panel, item: NDR2 |  | reference: vehicle | 100% |
| CSK (Homo sapiens, UniProt P41240) | competitive binding panel |  | reference: vehicle | 62% |
| ERBB2 (Homo sapiens, UniProt P04626) | competitive binding panel |  | reference: vehicle | 100% |
| SIK1 (Homo sapiens, UniProt P57059) | competitive binding | SIK |  | 92% |
| NEK5 (Homo sapiens, UniProt Q6P3R8) | competitive binding panel |  | reference: vehicle | 82% |
| EPHA2 (Homo sapiens, UniProt P29317) | competitive binding panel |  | reference: vehicle | 85% |
| CDK15 (Homo sapiens, UniProt Q96Q40) | competitive binding | PFTAIRE2 |  | 100% |
| RAF1 (Homo sapiens, UniProt P04049) | competitive binding panel |  | reference: vehicle | 90% |

Sample 4 — observed: enzyme activity; mode: inhibitor; concentration: 0.5 µM; reference: control
Target: SRSF protein kinase 2 (SRPK2, Homo sapiens, UniProt P78362)
UniProt P78362, sequence (whole entry, looked up): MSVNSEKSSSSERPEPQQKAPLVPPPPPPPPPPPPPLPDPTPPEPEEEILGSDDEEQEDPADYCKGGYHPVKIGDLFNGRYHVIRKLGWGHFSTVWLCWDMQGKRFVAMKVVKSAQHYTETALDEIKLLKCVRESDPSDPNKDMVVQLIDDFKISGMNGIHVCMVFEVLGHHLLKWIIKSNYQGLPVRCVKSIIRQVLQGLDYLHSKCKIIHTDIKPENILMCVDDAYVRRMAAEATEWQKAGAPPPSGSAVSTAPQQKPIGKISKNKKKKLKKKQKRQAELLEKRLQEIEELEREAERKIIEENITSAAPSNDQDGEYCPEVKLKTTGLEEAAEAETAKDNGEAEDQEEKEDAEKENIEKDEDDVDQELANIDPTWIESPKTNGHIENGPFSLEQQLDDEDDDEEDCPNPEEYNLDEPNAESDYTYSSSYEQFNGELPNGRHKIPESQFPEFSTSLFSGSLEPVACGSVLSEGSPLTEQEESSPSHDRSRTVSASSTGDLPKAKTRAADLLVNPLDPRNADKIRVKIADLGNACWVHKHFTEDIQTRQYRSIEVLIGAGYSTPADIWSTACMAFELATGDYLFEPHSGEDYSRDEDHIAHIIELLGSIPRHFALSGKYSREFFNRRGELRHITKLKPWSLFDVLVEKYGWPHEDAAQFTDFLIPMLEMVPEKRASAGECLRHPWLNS
| SMILES | remaining activity |
| --- | --- |
| Nc1nc(Nc2ccc(S(N)(=O)=O)cc2)nn1C(=S)Nc1c(F)cccc1F | 17.1% |
| COc1cc2c(N3CCN(C(=O)Nc4ccc(OC(C)C)cc4)CC3)ncnc2cc1OCCCN1CCCCC1 | 103% |
| O=C(c1ccccc1)c1ccc(N2CCOCC2)cc1O | 102% |
| N#C/C(=C(/N)SC1C=CC=CC1)c1cccc(C(O)c2ccncc2)c1 (stereo not shown) | 104% |
| O=c1c(-c2ccc(F)cc2)c(-c2ccncc2)[nH]n1-c1ccc(Cl)cc1 | 94.4% |
| CCCCc1c(-c2ccc(O)cc2)[nH]c2nccnc12 | 110% |
| CC(C)N(CCC(=O)c1ccc2ccccc2c1)Cc1ccccc1 | 99.1% |
| O=Nc1c(-c2c(O)[nH]c3ccccc23)[nH]c2ccccc12 | 91.3% |
| NC(=O)c1ccc(-c2nc(-c3ccc4c(c3)OCCO4)c(-c3ccccn3)[nH]2)cc1 | 95.3% |
| O=C1c2ccccc2-c2nc3nnnn3nc21 | 95.8% |
| O=C(O)/C=C/c1cc(Br)c(Br)c(Br)c1Br | 62% |
| O=C1NC(=O)/C(=C/c2ccc3c(c2)OC(F)(F)O3)S1 | 105% |
| CCN(CC)CCCCN1c2ccccc2Oc2ccc(Cl)cc21 | 109% |
| N#CC(c1ccnc(NCCc2cccnc2)n1)c1nc2ccccc2s1 (stereo not shown) | 97.1% |
| COc1cc2c(Nc3ccc(Br)cc3F)ncnc2cc1OCC1CCN(C)CC1 | 106% |
| CNc1cc2c(Nc3cccc(Br)c3)ncnc2cn1 | 89.4% |
| CC(C)(C)c1nc2c3cc[nH]c(=O)c3c3cc(F)ccc3c2[nH]1 | 70.5% |
| CC(C)n1cnc2c(Nc3cccc(Cl)c3)nc(NCCO)nc21 | 37.1% |
| NC(=O)c1cccc(-c2cc(Nc3ccc(OC(F)(F)F)cc3)ncn2)c1 | 105% |
| Clc1ccc(Nc2nnc(Cc3ccncc3)c3ccccc23)cc1 | 96.5% |
| FC(F)(F)c1ccc(/C=C/c2nc(COc3ccc(CCCCn4ccnn4)cc3)co2)cc1 | 101% |
| C[C@@H](N)[C@H]1CC[C@H](C(=O)Nc2ccncc2)CC1 | 87.8% |
| c1cc(-c2cnn3cc(-c4ccc(OCCN5CCCCC5)cc4)cnc23)ccn1 | 103% |

Repeated from above (sample 3):
| target | test | setting | scale | remaining binding |
| --- | --- | --- | --- | --- |
| IKBKB (Homo sapiens, UniProt O14920) | competitive binding | IKK-beta |  | 70% |
| RPS6KA5 (Homo sapiens, UniProt O75582) | competitive binding scan | C-terminal kinase domain 2 |  | 87% |
| MAPK12 (Homo sapiens, UniProt P53778) | competitive binding | p38-gamma |  | 100% |
| TEC (Homo sapiens, UniProt P42680) | competitive binding panel |  | reference: vehicle | 100% |
| TNNI3K (Homo sapiens, UniProt Q59H18) | competitive binding panel |  | reference: vehicle | 92% |
| CASK (Homo sapiens, UniProt O14936) | competitive binding panel |  | reference: vehicle | 85% |
| EPHA5 (Homo sapiens, UniProt P54756) | competitive binding panel |  | reference: vehicle | 99% |
| STK38L (Homo sapiens, UniProt Q9Y2H1) | competitive binding panel, item: NDR2 |  | reference: vehicle | 100% |
| CSK (Homo sapiens, UniProt P41240) | competitive binding panel |  | reference: vehicle | 62% |
| ERBB2 (Homo sapiens, UniProt P04626) | competitive binding panel |  | reference: vehicle | 100% |
| SIK1 (Homo sapiens, UniProt P57059) | competitive binding | SIK |  | 92% |
